Experimental data pooled from the literature.
Numbered parts are unrelated; each lists some results of a single study. Changes are numbered by the printed parent chain.

Study 1
Target: CCND1, cyclin fold, Cln2 fusion (human)
Technique: yeast growth competition, sequencing
Matrix: yeast
Notes: weak parent motif
Baseline: not given
Direction: higher = stronger binding
Parent: CABLES2 docking peptide (human); ICAKRSLCAAFSV; partner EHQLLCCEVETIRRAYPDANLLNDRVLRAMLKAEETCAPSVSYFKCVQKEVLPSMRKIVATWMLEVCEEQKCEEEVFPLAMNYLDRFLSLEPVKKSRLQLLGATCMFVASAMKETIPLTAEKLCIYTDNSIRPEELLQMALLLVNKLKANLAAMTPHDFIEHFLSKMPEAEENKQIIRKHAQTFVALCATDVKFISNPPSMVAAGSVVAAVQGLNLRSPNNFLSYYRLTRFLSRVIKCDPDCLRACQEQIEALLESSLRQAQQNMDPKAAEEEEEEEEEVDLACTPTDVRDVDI
Substitution	normalised enrichment score
S6A	0.511
C8A	-0.0924
R5A	-0.0719
V13A	0.0474
C2A	-0.167

Study 2
Target: RNA binding protein fox-1 homolog 2, RRM domain, GST-SBP tag (RBFOX2, Homo sapiens, UniProt O43251-10, residues 100-194)
Technique: RNA Bind-n-Seq
Molecule type: RNA
Matrix: in vitro
Concentration: 365 nM
Notes: natural RNA segment, single round, ends assumed
Baseline: no-protein control
Direction: higher = stronger binding
Constant ends, left off below: GGGAGUUCUACAGUCCGACGAUC … UGGAAUUCUCGGGUGCCAA
Construct (chain): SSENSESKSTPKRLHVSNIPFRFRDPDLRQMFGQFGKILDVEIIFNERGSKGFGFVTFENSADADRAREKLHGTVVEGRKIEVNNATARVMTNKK
Oligonucleotide	RBNS enrichment (R)
GUAAGCUAUAGCAUAUGUUUUUUAAGACUUAAGCAUUUCAUGCUUUAAAAUACCUUCACAAGUGAACAUUACACACAGAAGUUCAUUUGGUUUUCCUUUGUUUUAUGGUG	0.395
CCAGUGUCAUCUCUGCACUUCAGGAAUUGUCAACAACUGAGGUGGCCCUUGUCAGCACUUCUUUUUUUAUACCUCCUCUCAAGGCCACGUAAGUUACCUAGCUCUACCUG	0.47
CAUUUCCGUGUUCUAUUCCAGAGUGUUCUCUUCUCCCAGAGAACACUGGAACGUCCUCACAGGGAUGAAGGAAUUCUUUCUUUCCCACAGGAAAGGUGCUACUGUGUGGG	0.316
CUUUCAAAGUCCAGCCUAGUCUGGACUGCUUCCCCAUCAGCCUUCCCAAGGUUCUAUCCUGUUCCGAGCAACUUUUCUAAUUAUAAACAUCACAGAACAUCCUGGAUCAA	0.507
AGUCUGCUUCUGUCCCAGCCACAUCCACUUGUCAAUAAAGGCCUUCUGUACCUGACUUUGGGCAACAGGUAUCAAAAGCCUCAAGAGAACAGUUUCUCUGAUAAGAUUAU	0.396
AAGUGAAAGCAUCAUCCCCCAAAGGAUCACUGCACAGUCCUACUACAGUAUUUUUAAGUAGCCCUCUAAAUACUUAAUUUUAAGCAAAAUCCCUUGGCCGCACUUUUAAG	0.954
UCCUUCAUUCAGGGUUACUGACCUACUGUCCAGGGCUUGAUAGGUAAGGCAGCUUGUUGGCCCUUGUUACAGUAUCUUAGUGUACCCUCCUGUUACAGCUUCCACACUCA	0.357
CUAGCCAGGCAUGAUUGCAAUGUCUACAGGCCCAGUUCAUGAGAGGCAGAGACAGGAAGACCGCCGAAAGGUCAAGGAUAGCAUGGUCUACGUAUCGAGACUCCAGCCAG	5.99

Study 3
Target: ABI1, truncated, D143A, DHFR fusion (Arabidopsis thaliana)
Technique: DHFR PCA, deep sequencing
Matrix: yeast
Notes: methotrexate growth selection, single substitutions
Added: (+)-ABA 0.11 µM
Baseline: wild-type fitted maximum
Direction: higher = stronger binding
Parent: PYL1, truncated, DHFR fusion (Arabidopsis thaliana); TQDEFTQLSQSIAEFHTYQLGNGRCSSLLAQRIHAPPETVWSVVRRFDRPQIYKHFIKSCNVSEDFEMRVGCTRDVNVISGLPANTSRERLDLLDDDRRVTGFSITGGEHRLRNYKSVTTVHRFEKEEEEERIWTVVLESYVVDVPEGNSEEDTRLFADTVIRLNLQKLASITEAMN; partner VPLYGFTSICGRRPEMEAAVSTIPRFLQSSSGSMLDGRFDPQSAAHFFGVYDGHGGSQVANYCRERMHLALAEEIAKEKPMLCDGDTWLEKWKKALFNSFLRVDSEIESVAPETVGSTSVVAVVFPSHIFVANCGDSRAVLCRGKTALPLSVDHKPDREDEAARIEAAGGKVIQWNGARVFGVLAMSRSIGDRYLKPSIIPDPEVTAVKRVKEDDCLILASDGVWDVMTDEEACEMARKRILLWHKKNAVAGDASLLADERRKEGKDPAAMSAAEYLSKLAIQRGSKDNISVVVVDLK
Substitution	relative binding score [%]
T173H	-5.01
L112W	23.1
E89Y	5.21
F56E	1.66
T86D	6.21
I57W	6.52
Q167A	36.5
L82A	11.7
A170V	-2.35
P50F	-2.81
H34P	-1.66
A158C	79.5
A175Y	5.54
T6V	48.6
G107T	-1.05

Study 4
Target: Histone acetyltransferase KAT6A, both winged helices, GST fusion (KAT6A, Homo sapiens, UniProt Q92794, residues 1-181)
Technique: protein binding microarray
Molecule type: double-stranded DNA, one strand shown
Matrix: in vitro
Concentration: not given
Notes: 8-mer, flanks averaged, mean of 2 arrays, mostly near background
Baseline: not given
Direction: higher = stronger binding
Construct (chain): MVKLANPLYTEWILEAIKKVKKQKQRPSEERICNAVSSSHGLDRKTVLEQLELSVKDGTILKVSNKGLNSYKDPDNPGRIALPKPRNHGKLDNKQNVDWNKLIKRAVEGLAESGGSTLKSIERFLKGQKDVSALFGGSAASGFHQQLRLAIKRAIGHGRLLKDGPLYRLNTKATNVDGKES
Oligonucleotide	E-score
AACCCTGT	-0.0969
AATCAAGC	0.0329
CCGACGCA	0.247
CGCTGATC	0.27
AGATTGCC	-0.0872
AGGAGACA	-0.118
GTGAGAAA	-0.0699
TGGGTACA	-0.0643
ACAACGGG	0.0248
CAGATCCA	-0.225
CAAAGTTA	0.0298
ATGTTTTG	-0.0479
ACTTAAGC	0.0504
AGGAAGAC	-0.188
CCATAATA	-0.114
TACCAAAA	-0.00939
GCAGGCAC	0.0292
CGGGGATC	0.149
ACGCCGCG	0.349
CCGGTCTA	0.0915
AGGTCTAT	0.0321
AAACACAG	-0.102

Study 5
Target: Interferon regulatory factor 7, full length, phosphomimetic (IRF7, Homo sapiens, UniProt Q92985, residues 1-503, S471D/S472D/S475D/S476D/S477D/S483D/S484D/S487D)
Chain of UniProt Q92985 (whole entry, unmodified, looked up): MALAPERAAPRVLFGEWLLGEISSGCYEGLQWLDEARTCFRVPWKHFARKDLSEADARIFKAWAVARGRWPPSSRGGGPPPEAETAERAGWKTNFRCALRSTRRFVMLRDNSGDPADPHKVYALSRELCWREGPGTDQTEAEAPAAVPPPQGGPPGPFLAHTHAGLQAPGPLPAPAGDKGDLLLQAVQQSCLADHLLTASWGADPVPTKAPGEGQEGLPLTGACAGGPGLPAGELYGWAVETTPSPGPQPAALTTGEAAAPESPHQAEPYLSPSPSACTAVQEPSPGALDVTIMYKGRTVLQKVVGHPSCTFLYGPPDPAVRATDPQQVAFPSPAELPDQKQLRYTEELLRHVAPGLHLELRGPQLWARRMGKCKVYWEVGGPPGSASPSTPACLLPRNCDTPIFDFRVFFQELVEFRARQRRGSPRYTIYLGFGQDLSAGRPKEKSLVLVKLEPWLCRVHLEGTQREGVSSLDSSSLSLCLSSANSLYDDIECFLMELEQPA
Technique: protein-binding microarray
Molecule type: double-stranded DNA, one strand shown
Matrix: in vitro
Concentration: 2200 nM top
Notes: 60-bp whole probe
Added: salmon DNA 0.4 mg/ml
Baseline: random background probes
Direction: higher = stronger binding
Constant ends, left off below: GCCTAGCAC … GTCTTGATTCGCTTGACGCTGCTG
Oligonucleotide	fitted relative affinity [z-score]
TTAGGTATCGGGTATCGGCTAGTGCTA	0.291
TTAGATATCGGGACTGTATTAGTGCTA	-0.0343
CACGGTATCGACTATCGGGACGTGCTA	0.0332
TTAGGTTCCCTTTTCCTTTAGTGCTAG	3.31
GACGGTATCGACTATCGGGAAGTGCTA	-0.028
TTGGTTTTCCTTATTGCTTCGTGCTAG	2.91
TTAGAACTGAGACCGGATTAGTGCTAG	-0.51
TCATATCACTATTCTAGGACTGTGCTA	1.05
TCACTTTTATTTTCAGTACTGTGCTAG	3.58
ACAGCAAGCAGGGCCAGCCCGTGCTAG	-0.677
GACGGTTTCGGGACTGGGGATGTGCTA	3.38
TTCTCTTTCATTGCTGCCCTGTGCTAG	2.66
TTAGGTCTCGGTTTTGGTTAGTGCTAG	2.5
GACGATACCAGACTGGAGACGTGCTAG	0.0758
TTAGGTCTCCTACTGCTATAGTGCTAG	0.613
TTAAGTATCGGTTTCGGTTAGTGCTAG	7.74
GGCGGTTTCGGGTATCGGGACGTGCTA	6.03
TCATAACTCAAGATTCCTACTGTGCTA	0.357
GACGGTTCCCTTTTCATGACGTGCTAG	2.19

Repeated from above (study 3):
Substitution	relative binding score [%]
G107T	-1.05
T173H	-5.01
L82A	11.7
Q167A	36.5
T86D	6.21
P50F	-2.81
A158C	79.5
F56E	1.66
